Experimental data gathered from unrelated publications.
Protocols differ between the studies behind these lines. Several values in a cell are separate wells, animals, samples, runs or records. ± gives the spread as reported.

`heparin sodium`: “positive urine erythrocytes” 0% (healthy Chinese adult volunteers; continuous intravenous infusion, 8 IU/kg/h, 5 days).
Under “antigen-specific CD4 T cells”, `LPLKMLNIPSINVH` is recorded as 0.54% (stimulated healthy donor PBMCs; single-epitope tetramer staining, item: DRB1*01:01 tetramer; peptide; concentration not given; reference: CD4 T cells).
With `lead` the viability was 0.54 (U87 glioblastoma; CCK-8; 2.5 µM, 24 h, unit not given; reference: untreated control).
`LHKLLHHLLHHLHKLLHHLHHLLHKLC` has an EC50 of 31000 nM (human red blood cells; hemolysis; peptide; 1 h, pH 5.5; reference: Triton X-100).
The IFN-γ release of `RTLEDLLMGT` is reported as 338 pg/mL (HPV16 E7-specific T-cell line; ELISA; peptide, supernatant; concentration not given, 24 h, added: peptide-pulsed autologous B cells).
With `colistin` the mitochondrial fragmentation was 27.5% and 21.9% (Aspergillus fumigatus; mito::GFP; concentration not given, 15 min, germlings).
`CEMDGQCKRDLKCCMGMCGKSCVSPVKA` gave a p-p38/p38 ratio of 0.31 ± 0.06 (RAW264.7; Western blot; peptide; concentration not given, 6 h pretreatment, added: LPS 30 min).
`KISEYRHYV` gave an IFN-γ release of 172 pg/mL (HPV16 E6-specific T-cell line; ELISA; peptide, supernatant; concentration not given, 24 h, added: peptide-pulsed autologous B cells).
`Apelin` has a cell migration of 2.5 fold (OVCAR-3; Transwell; concentration not given, 7 to 8 h; reference: control).
For `aspterric acid`, the inhibition was 99.2% (root length; Arabidopsis thaliana Col-0 seeds; 12.5 µg/mL).
For `YMLDLQPEV`, the specific lysis was 0.9% (ASPC1 (HLA-A2− HPV−); 111In release; peptide; concentration not given, 16 h, E:T 25:1, IVS 5, added: peptide-generated T-cell line).
`pertussis toxin` gave a p-PKA level of 99.3 MFI (immunostaining; humanized mouse, SAH model, meninges; dose not given).
`Polymyxin B` has a survival of 100% (mouse; intraperitoneal, 20 mg/kg single dose, day 2).
For `Tunicamycin`, “BiP protein level” read 1.81 and 1.95 and 1.47 and 1.49 and 1.5 and 2.35 (HEK293; western blot; 10 µg/mL, 6 h, unit not given; reference: mock).
The IC50 of `CRQLRKGKFFSEGGSGGTSFEQFWAWLWP` is reported as 305 nM (786-O cells; cell viability, CCK-8; peptide; 48 h).
`EESDDLYIPAFLRKQLD` has a degradation of > 50% (DLD-1; immunoblot, item: beta-catenin; peptide, cytosolic fraction; reference: non-transfected cells).
`YMLDLQPET` gave an IFN-γ release of 247 pg/mL (HPV16 E7-specific T-cell line; ELISA; peptide, supernatant; concentration not given, 24 h, added: peptide-pulsed autologous B cells).
`C.I. Basic Violet 14` has an IC50 of 4960 ± 3240 nM (HepaRG; reactive oxygen species, ROS-Glo luminescence; 16 h).
For `KLPQLCTEV`, the specific lysis was -0.2% and 0.2% (ASPC1 (HLA-A2− HPV−); 111In release; peptide; concentration not given, 16 h, E:T 25:1, IVS 5, added: peptide-generated T-cell line).
The leg extraction of `glucagon` is reported as 27.9 ± 3.8% (isotope dilution; human, type 1 diabetes; intravenous infusion, 0.12 ng/kg/min, 160 to 180 min).
`DPDPE` has a retention time of 8.87 min (RP-HPLC; HALO C18 column; 25 µM, acetic acid/acetonitrile, 25 min gradient).
`pladienolide B` — result for “changed accessible sites”: < 200 sites (22Rv1; ATAC-seq; concentration not given, 3 h, log2FC below -1 or above 1).
`abamectin` — result for “number of regulated genes”: 1600 genes (HepG2; RNA-seq, item: genes, LRH-1 target, endogenous; 10 µM, 24 h, log2 fold change cut-off ±1.0).
`KLPQLCTEL` gave a specific lysis of 3% (HN-30 (HLA-A2− HPV+); 111In release; peptide; concentration not given, 16 h, E:T 25:1 IVS 5, added: peptide-generated T-cell line).
The kon of `nonaarginine` is reported as 4e+07 ± 4e+06 M⁻¹ s⁻¹ (PorA peptide pore; peptide binding, planar bilayer single-channel recording; 0.5 µM, pH 7.4, -30 mV, cis side, 150 mM KCl).
For `insulin human`, the fold change was 1.18 (item: PTEN mRNA; EcoHIV-infected mouse, brain; i.p., dose not given; reference: PBS).
`DAMGO` has an IC50 of 50 ± 10 nM (naive rat DRG neurons; PKA-RII phosphorylation, high-content microscopy; added: forskolin 3 µM).
Under “time to maximum ΔF/F0”, `BzATP` is recorded as 11 min (N2a; fluorescence signal increase, stimulant, fluorescence plate reader; 300 µM).
For `cucurbitacin B`, the IC50 was 51.1 nM (MP46 (BAP1-mutant uveal melanoma); cell viability, CellTiter-Glo; 72 h).
With `CLDPVDTPNPTR` the p-ERK/ERK ratio was 0.34 ± 0.01 (RAW264.7; Western blot; peptide; concentration not given, 6 h pretreatment, added: LPS 30 min).
Under “peak decay time”, `SFLLRNPNDKYEPF` is recorded as 0.73 min (BPAEC; fura-2; peptide; 100 µM, 50% decay from peak).
The specific lysis of `KISEYRHYC` is reported as 3.3% (HN-30 (HLA-A2− HPV+); 111In release; peptide; concentration not given, 16 h, E:T 25:1 IVS 5, added: peptide-generated T-cell line).
For `HVLVMSATRR`, the creatinine was 0.2 mg/dL (peptide, C57BL/6J mice, male, serum; subcutaneous osmotic pump, 3 mg/kg/day peptide basis, 8 weeks).
With `hexaarginine` the koff was 2300 ± 250 s⁻¹ (PorA peptide pore; peptide binding, planar bilayer single-channel recording; 0.5 µM, pH 7.4, +15 mV, trans side, 150 mM KCl).

A few entries again:
Under “antigen-specific CD4 T cells”, `LPLKMLNIPSINVH` is recorded as 0.54% (stimulated healthy donor PBMCs; single-epitope tetramer staining, item: DRB1*01:01 tetramer; peptide; concentration not given; reference: CD4 T cells).
With `lead` the viability was 0.54 (U87 glioblastoma; CCK-8; 2.5 µM, 24 h, unit not given; reference: untreated control).
`LHKLLHHLLHHLHKLLHHLHHLLHKLC` has an EC50 of 31000 nM (human red blood cells; hemolysis; peptide; 1 h, pH 5.5; reference: Triton X-100).
The IFN-γ release of `RTLEDLLMGT` is reported as 338 pg/mL (HPV16 E7-specific T-cell line; ELISA; peptide, supernatant; concentration not given, 24 h, added: peptide-pulsed autologous B cells).
